Published values collected from several papers.
Numbered parts are unrelated; each lists some results of a single study.

Block 1
Target: Ras GTPase-activating protein-binding protein 1, full length (G3BP1, Homo sapiens, UniProt Q13283)
Chain of UniProt Q13283 (whole entry, looked up): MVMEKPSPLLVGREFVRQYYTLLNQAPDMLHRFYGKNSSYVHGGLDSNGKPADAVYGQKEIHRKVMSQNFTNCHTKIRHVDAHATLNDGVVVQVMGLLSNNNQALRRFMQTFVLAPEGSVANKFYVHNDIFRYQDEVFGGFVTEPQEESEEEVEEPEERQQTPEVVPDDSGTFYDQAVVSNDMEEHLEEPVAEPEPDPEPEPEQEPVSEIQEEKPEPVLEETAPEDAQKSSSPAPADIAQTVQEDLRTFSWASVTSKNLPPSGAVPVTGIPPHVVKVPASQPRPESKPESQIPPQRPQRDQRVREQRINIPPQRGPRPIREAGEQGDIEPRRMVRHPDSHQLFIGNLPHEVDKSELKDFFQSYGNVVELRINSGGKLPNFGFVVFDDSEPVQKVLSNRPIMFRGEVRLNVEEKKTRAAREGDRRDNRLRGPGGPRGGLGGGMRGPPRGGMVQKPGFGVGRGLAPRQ
Technique: RNA Bind-n-Seq
Form: RNA
Sample: in vitro
Tested at: 200 nM
Setting: whole 134-nt RNA, ends assumed
Together with: 150 mM KCl
Reference: input library
Reading: higher = stronger binding
The log2 enrichment of `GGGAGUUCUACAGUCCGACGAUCCAAGUCCUGUGCUACACAUCGUAUGUACCGAAUCGGGGUUUGGUUUGGGUUUGGGAAAGUAUUAUGUUACGCCGUUCGGAUCUGCACUUCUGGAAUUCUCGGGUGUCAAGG` is reported as -0.284.
`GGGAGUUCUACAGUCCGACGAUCUGGCCCUGGUGGCAUGCGGGGAGGAAGAGGUGGCCUCAUGGAUCGUGGUGGUCCCGGUGGAAUUUUCAGAGGUGGCCGUGGUGGAGACAGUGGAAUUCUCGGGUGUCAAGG` gave a log2 enrichment of 0.312.
With `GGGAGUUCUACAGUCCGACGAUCUAACUUUAGAGGAGGAUCUGAUGGAUAUGGCAGUGGACGUGGAUUUGGGGAUGGCUAUGAUGGGUAUGGAGGAGGACCUGGAGGUGGCAAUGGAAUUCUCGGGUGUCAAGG` the log2 enrichment was 0.429.
`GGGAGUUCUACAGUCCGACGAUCCUCAAGUCCUGUGCUACACAUCGUAUGUACCGAAUCGGGUUGGGUUGGGGUUGGAAAGUAUUAUGUUACGCCGUUCGGAUCUGCACUUCCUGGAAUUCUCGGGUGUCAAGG` has a log2 enrichment of 0.263.
For `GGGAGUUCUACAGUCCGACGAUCUGGUAAGAAAUCUGCUUGUUUUAUUAAAAUGCUUAAUUGAAGAAAAUAAUAUUCUUCUGUGAUUAAAAUUAGGAAGAAAUAGAACCAUUUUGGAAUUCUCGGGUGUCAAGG`, the log2 enrichment was -1.58.
`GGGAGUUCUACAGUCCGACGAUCUGGGAGGUGGAUUUUGUUUAUUUUUUUAGCUGAUUUCCAGGGGUGGGAAUUUUUUUUUAAUAUGUGUCAUGAAUAAAGUUGUUUUUGAAAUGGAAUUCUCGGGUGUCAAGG` has a log2 enrichment of 0.331.

Block 2
Target: Sal-like protein 4, full length isoform A (SALL4, Homo sapiens, UniProt Q9UJQ4, residues 1-1053)
Chain of UniProt Q9UJQ4 (whole entry, looked up): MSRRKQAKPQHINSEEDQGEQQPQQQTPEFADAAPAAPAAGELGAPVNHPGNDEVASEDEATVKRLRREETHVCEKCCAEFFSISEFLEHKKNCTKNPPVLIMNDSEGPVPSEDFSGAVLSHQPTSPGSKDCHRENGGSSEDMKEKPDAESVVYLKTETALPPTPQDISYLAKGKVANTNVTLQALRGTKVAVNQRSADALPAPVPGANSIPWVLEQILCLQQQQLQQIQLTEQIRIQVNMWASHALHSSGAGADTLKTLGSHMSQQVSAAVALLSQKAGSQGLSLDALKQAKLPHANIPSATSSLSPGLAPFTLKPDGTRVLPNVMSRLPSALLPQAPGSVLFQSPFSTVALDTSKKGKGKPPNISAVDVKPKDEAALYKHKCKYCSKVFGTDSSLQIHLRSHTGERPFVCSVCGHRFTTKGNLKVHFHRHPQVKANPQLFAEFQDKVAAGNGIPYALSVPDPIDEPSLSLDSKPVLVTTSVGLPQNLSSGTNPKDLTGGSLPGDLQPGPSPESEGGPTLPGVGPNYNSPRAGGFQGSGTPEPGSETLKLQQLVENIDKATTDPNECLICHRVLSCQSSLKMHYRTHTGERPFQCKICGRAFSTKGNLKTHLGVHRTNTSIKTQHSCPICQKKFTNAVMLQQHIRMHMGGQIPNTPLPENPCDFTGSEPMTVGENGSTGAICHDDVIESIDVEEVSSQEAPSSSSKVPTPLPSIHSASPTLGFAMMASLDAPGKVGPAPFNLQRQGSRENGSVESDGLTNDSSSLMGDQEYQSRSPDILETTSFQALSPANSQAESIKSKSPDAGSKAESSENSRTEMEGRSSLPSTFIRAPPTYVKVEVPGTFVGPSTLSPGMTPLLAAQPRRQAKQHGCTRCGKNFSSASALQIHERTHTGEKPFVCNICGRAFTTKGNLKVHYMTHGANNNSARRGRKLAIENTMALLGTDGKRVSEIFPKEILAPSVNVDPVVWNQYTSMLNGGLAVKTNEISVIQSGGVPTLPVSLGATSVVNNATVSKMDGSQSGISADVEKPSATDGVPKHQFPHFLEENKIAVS
Technique: universal PBM
Form: double-stranded DNA, one strand shown
Sample: in vitro
Tested at: 600 nM
Setting: 8-mer, flanks averaged, mean of replicates
Reading: higher = stronger binding
The E-score of `CTAAATTC` is reported as 0.0413.
The E-score of `GCAAAAGC` is reported as 0.117.
`CCGCAAGC` has an E-score of -0.241.
The E-score of `ACGGCATA` is reported as 0.0949.
`GGGGGAGA` has an E-score of -0.216.
`GATAACCC` gave an E-score of -0.0889.
`ATGCGAGC` has an E-score of -0.139.
`ACGGCTCA` gave an E-score of -0.079.
For `CCGGGAAA`, the E-score was -0.196.

Block 3
Target: RNA binding protein fox-1 homolog 2, RRM domain, GST-SBP tag (RBFOX2, Homo sapiens, UniProt O43251-10, residues 100-194)
Technique: RNA Bind-n-Seq
Form: RNA
Sample: in vitro
Tested at: 365 nM
Setting: natural RNA segment, single round, ends assumed
Reference: no-protein control
Reading: higher = stronger binding
Residues (chain): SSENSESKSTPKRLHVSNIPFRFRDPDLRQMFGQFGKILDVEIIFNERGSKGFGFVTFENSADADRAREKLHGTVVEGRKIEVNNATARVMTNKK
For `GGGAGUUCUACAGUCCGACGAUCCUGCCUGCUUUCCUCAAGACGAGAGAGACCCCAGACUGUGUGUGGUUCAUUAGAGCAGUCUGGCCACUGGGGUGCCAGUUCGUUGGCCUUCCACGCUGAGGUACCCUCUGUGGAAUUCUCGGGUGCCAA`, “RBNS enrichment (R)” read 1.15.
`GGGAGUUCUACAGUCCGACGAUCCCCAGGGCCACUGGGGGAAUGUUUUAUGAAAUCAUGUAGAGUGCUGUAGUUUUGAAGUCAUCCGUUUUUUGAUGACAAAGUACCUGUGGAAAACCAGGGAUAUUUUUUUUUGGAAUUCUCGGGUGCCAA` — result for “RBNS enrichment (R)”: 0.703.
`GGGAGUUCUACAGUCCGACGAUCAAUACGUGGCAUUAUUCUUUUUUGGAUUUCUCAUUUAUGGAAGGCUAACCCUCUGUUGACUGUAAGCCUUUUGGUUUGGGCUGUAUUGAAAUCCUUUCUAAAUUGCAUGAUGGAAUUCUCGGGUGCCAA` — result for “RBNS enrichment (R)”: 20.
Under “RBNS enrichment (R)”, `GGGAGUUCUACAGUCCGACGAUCCAGCCUGCCCAUGGCACCCCAAAAGCAAGAUCCUGGAGAUCACAUUUGAUCCUACCAAAACCACUGCUGCUGUUUCUGAGAAAAGAAAGCAUUUUAUUCACCUGCAAGAUUGGAAUUCUCGGGUGCCAA` is recorded as 0.932.
`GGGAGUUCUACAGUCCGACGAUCUUUUAGGUCUGCUGAAGUCUGGUGUUCUUUGCUCCUUCUGCAAUCUUGAAAUUGGGGUUUGCUUUAGAGCACAAACAUAAGUCUGUGUUAGGUGGACUUAAAUCCCAACAUGGAAUUCUCGGGUGCCAA` — result for “RBNS enrichment (R)”: 0.31.
Under “RBNS enrichment (R)”, `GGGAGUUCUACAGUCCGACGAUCGUUACCCUCUAUUCUUUCUAGUGCUUUCAGUCAGUGGCAACACAUAGGCCCCUUGGACCGUGGGGAUGGCGGCCCUGAGAUUCUGUCAGUGGGACCACCCUGGGCCUCCUUGGAAUUCUCGGGUGCCAA` is recorded as 0.673.
Under “RBNS enrichment (R)”, `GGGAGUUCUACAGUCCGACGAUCUUUUCGAAAUUGUUUCUAGGACUUUAAAACAUAAUGGUAUAUCCAAAAUUCUUUAUUUCAGAAUGCAACAAUAGAUUCCAUUAAUAUAGACUCAAGAUCAAAACAGCAUAUGGAAUUCUCGGGUGCCAA` is recorded as 0.563.
`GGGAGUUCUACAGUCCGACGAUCUUAAUCAGGAAUAUUGUGGUAAGCUGGGAGUAUCACUCUGGAAGAAAGUAACAUCUCCAGAUGAGAAUUUGAAACAAGAAACAGAGUGUUGUAAAAGGACACCUUCACUGUGGAAUUCUCGGGUGCCAA`: “RBNS enrichment (R)” 0.483.
For `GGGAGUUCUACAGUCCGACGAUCUGGUUUUGAAAGUCUCUUCUCUGUAUAUUCCUACCCUGCAUUUGCUUUGUGUGGUGCUGAUGCUGUGCGCAGUAGGAUUCUUGGAUGACUCUCCAUCAGUCACAGACUCCUGGAAUUCUCGGGUGCCAA`, “RBNS enrichment (R)” read 1.14.

Single results of other studies
The fold induction of `PhoQ, residues 284 288 289 292 302 303 NLALSC` is reported as 8.85 (PhoP, residues 12 14 15 18 19 GHCSL (Escherichia coli, UniProt P23836); Sort-seq, measured: YFP reporter; E. coli; PhoQ-PhoP variant library, together with: 10 µM Mg2+; reference: high Mg2+ state, higher = stronger signaling).

Repeated from above (block 3):
Under “RBNS enrichment (R)”, `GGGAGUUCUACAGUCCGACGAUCCAGCCUGCCCAUGGCACCCCAAAAGCAAGAUCCUGGAGAUCACAUUUGAUCCUACCAAAACCACUGCUGCUGUUUCUGAGAAAAGAAAGCAUUUUAUUCACCUGCAAGAUUGGAAUUCUCGGGUGCCAA` is recorded as 0.932.
`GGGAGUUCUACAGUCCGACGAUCAAUACGUGGCAUUAUUCUUUUUUGGAUUUCUCAUUUAUGGAAGGCUAACCCUCUGUUGACUGUAAGCCUUUUGGUUUGGGCUGUAUUGAAAUCCUUUCUAAAUUGCAUGAUGGAAUUCUCGGGUGCCAA` — result for “RBNS enrichment (R)”: 20.
Under “RBNS enrichment (R)”, `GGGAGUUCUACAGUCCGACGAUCGUUACCCUCUAUUCUUUCUAGUGCUUUCAGUCAGUGGCAACACAUAGGCCCCUUGGACCGUGGGGAUGGCGGCCCUGAGAUUCUGUCAGUGGGACCACCCUGGGCCUCCUUGGAAUUCUCGGGUGCCAA` is recorded as 0.673.
